Assay results pooled from the literature.
Parts stem from different laboratories: compare values within a part only. Changes are numbered by the printed parent chain.

Series 1
Target: RNA binding protein fox-1 homolog 2, RRM domain, GST-SBP tag (RBFOX2, Homo sapiens, UniProt O43251-10, residues 100-194)
Technique: RNA Bind-n-Seq
Molecule type: RNA
Matrix: in vitro
Tested at: 365 nM
Setting: natural RNA segment, single round, ends assumed
Reference: no-protein control
Reading: higher = stronger binding
Construct (chain): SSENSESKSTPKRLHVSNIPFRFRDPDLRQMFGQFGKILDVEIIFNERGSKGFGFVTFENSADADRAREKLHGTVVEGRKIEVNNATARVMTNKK
| Sequence | RBNS enrichment (R) |
| --- | --- |
| GGGAGUUCUACAGUCCGACGAUCUUUUUGAAAUGUGUAUUUCUAAUUAUAUAAAAUAUUAAGAAUCUUUUAAAAAUCUGUGAAAUUAACAUGCUUGUGUAUAGCUUUCUAAUAUAUAUAAUAUUAUGGUAAUGUGGAAUUCUCGGGUGCCAA | 2.79 |
| GGGAGUUCUACAGUCCGACGAUCAGGGAGGGCCCACCUUAGACUGCUGGGGAGAGGCCACAGGGCUGGGGGCCAGGUCCGGCCAGCUGUGCCCAUCGCCUGGGAGAAGGCCAGCUCACCAACUGAGCUCUGGAUGGAAUUCUCGGGUGCCAA | 0.353 |
| GGGAGUUCUACAGUCCGACGAUCAAGACAUCCUUUCUAAAGAUUCAAGUGGACUUGACUAAGCUGAGGGUCCACGAAAUAGAAUAUGACAUGUGAGCUGUUUUUGGAAAACGAAGAUGGAGAGAGCACUUCCCUGGAAUUCUCGGGUGCCAA | 0.25 |
| GGGAGUUCUACAGUCCGACGAUCGUAAUAAAAUAGAGCAUAACGAAACUGUGAAACUUUCUGAAGCCUUGUCAGUGGUUAAAAGUAUUUAACACUCUACUGUUAAUGACAGAUGUUCUGUUUUUAUAACCUACUGGAAUUCUCGGGUGCCAA | 0.512 |

Series 2
Target: CCND3, cyclin fold, Cln2 fusion (human)
Technique: yeast growth competition, sequencing
Matrix: yeast
Setting: weak parent motif
Reference: not given
Reading: higher = stronger binding
Starting sequence: PKN2 docking peptide (human); VSAVRKLDFSDTM; partner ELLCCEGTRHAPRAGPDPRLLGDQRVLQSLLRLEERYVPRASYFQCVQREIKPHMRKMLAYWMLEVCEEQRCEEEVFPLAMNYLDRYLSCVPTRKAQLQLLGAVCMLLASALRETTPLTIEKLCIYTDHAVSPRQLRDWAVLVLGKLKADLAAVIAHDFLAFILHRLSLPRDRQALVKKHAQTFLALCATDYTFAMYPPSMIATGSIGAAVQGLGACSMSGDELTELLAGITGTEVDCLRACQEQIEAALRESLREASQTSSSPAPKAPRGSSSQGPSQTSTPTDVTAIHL
| Change | normalised enrichment score |
| --- | --- |
| VSAVNKLDFSDTM [R5N] | -0.08 |
| VSAVRKLEFSDTM [D8E] | 0.751 |
| VSAVRKLDFHDTM [S10H] | 0.695 |
| VSAVLKLDFSDTM [R5L] | 0.27 |

Series 3
Target: Ras GTPase-activating protein-binding protein 1, RRM domain (G3BP1, Homo sapiens, UniProt Q13283)
Sequence of UniProt Q13283 (whole entry, looked up): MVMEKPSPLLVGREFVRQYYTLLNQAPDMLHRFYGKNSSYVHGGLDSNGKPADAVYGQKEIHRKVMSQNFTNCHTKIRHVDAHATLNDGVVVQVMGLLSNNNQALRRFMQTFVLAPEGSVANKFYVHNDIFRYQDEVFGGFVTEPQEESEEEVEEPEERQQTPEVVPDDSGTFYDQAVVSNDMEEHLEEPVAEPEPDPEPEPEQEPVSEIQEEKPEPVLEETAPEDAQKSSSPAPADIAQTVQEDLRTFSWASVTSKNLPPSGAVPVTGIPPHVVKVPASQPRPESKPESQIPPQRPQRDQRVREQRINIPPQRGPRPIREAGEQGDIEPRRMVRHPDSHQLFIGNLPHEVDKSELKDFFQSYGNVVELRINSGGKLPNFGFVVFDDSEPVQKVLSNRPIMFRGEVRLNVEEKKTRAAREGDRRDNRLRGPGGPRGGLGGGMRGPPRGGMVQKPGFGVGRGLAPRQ
Technique: RNA Bind-n-Seq
Molecule type: RNA
Matrix: in vitro
Tested at: 1 µM
Setting: whole 134-nt RNA, ends assumed
Added: 150 mM KCl
Reference: input library
Reading: higher = stronger binding
| Sequence | log2 enrichment |
| --- | --- |
| GGGAGUUCUACAGUCCGACGAUCCUCAAGUCCUGUGCUACACAUCGUAUGUACCGAAUCGGAAGGAAGGGGAAGGGGAAAGUAUUAUGUUACGCCGUUCGGAUCUGCACUUCCUGGAAUUCUCGGGUGUCAAGG | -0.199 |
| GGGAGUUCUACAGUCCGACGAUCAAGUCCUGUGCUACACAUCGUAUGUACCGAAUCGGGGUUUGGGGUUUGGGUUUGGGGAAAGUAUUAUGUUACGCCGUUCGGAUCUGCACUUGGAAUUCUCGGGUGUCAAGG | 0.461 |
| GGGAGUUCUACAGUCCGACGAUCUGGAGAAGCGCUACCUGGCUGCUCAGCGUGAGGCAACAUCCAUCCAUGACCUCAAUGACAAGCUGGAGAAUGAGCUGGCCAACAAGGAGUUGGAAUUCUCGGGUGUCAAGG | -0.269 |
| GGGAGUUCUACAGUCCGACGAUCUAACUUUAGAGGAGGAUCUGAUGGAUAUGGCAGUGGACGUGGAUUUUGGGAUGGCUAUAAUGGGUAUGGAGGAGGACCUGGAGGUGGCAAUGGAAUUCUCGGGUGUCAAGG | -0.426 |

Single results of other studies
| Molecule | target | assay | system | conditions | scale | endpoint | result |
| --- | --- | --- | --- | --- | --- | --- | --- |
| PhoQ, residues 284 288 289 292 302 303 TLASMF | PhoP, residues 12 14 15 18 19 NYFTV (Escherichia coli, UniProt P23836) | Sort-seq, measured: YFP reporter | E. coli | PhoQ-PhoP variant library, added: 10 µM Mg2+ | reference: high Mg2+ state, higher = stronger signaling | fold induction | 10.6 |
